Published values collected from several papers.
Each numbered part is a random draw from the data of one study; scales do not carry over between parts. Values joined by “and” are separate records of one study, mostly repeats; a detail may differ.
UniProt Q6DT37, sequence (whole entry, looked up): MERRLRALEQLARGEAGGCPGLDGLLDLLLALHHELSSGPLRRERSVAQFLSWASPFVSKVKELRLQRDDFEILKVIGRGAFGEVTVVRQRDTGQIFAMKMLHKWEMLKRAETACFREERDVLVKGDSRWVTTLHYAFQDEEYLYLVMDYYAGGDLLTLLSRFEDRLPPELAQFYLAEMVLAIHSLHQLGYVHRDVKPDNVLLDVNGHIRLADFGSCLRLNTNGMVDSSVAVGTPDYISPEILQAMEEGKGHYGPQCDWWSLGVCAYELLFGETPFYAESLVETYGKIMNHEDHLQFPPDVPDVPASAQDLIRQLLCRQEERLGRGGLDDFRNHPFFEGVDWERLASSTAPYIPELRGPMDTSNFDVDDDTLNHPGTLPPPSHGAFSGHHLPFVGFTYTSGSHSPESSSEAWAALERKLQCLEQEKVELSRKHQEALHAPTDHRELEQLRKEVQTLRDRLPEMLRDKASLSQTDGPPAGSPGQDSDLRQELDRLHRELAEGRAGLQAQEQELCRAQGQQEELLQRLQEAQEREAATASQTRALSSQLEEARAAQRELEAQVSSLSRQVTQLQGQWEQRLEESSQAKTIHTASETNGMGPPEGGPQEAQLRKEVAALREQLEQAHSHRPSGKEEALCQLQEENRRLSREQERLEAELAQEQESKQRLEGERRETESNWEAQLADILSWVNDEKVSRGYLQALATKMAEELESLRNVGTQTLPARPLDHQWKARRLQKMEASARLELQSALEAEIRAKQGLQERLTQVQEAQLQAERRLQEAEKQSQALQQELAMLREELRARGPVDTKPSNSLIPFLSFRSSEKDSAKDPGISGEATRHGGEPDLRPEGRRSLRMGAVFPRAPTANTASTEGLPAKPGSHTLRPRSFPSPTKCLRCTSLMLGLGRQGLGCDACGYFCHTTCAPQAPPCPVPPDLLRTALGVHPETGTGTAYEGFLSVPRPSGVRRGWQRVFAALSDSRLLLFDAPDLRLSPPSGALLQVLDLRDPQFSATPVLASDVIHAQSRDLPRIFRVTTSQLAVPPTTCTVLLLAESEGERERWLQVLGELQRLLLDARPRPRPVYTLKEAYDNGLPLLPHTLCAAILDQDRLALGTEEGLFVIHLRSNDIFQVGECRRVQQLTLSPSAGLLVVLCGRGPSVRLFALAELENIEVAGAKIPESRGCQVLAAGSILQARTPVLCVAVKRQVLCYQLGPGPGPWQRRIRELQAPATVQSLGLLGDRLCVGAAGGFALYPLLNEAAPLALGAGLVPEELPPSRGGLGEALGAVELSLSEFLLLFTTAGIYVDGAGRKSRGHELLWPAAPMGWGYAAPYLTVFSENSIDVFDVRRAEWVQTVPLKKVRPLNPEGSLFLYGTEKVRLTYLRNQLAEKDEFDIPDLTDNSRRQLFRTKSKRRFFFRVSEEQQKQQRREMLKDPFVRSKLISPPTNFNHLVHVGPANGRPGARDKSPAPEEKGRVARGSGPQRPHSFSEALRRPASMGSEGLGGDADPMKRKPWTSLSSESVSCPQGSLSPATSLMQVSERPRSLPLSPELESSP
UniProt P07949, sequence (whole entry, looked up): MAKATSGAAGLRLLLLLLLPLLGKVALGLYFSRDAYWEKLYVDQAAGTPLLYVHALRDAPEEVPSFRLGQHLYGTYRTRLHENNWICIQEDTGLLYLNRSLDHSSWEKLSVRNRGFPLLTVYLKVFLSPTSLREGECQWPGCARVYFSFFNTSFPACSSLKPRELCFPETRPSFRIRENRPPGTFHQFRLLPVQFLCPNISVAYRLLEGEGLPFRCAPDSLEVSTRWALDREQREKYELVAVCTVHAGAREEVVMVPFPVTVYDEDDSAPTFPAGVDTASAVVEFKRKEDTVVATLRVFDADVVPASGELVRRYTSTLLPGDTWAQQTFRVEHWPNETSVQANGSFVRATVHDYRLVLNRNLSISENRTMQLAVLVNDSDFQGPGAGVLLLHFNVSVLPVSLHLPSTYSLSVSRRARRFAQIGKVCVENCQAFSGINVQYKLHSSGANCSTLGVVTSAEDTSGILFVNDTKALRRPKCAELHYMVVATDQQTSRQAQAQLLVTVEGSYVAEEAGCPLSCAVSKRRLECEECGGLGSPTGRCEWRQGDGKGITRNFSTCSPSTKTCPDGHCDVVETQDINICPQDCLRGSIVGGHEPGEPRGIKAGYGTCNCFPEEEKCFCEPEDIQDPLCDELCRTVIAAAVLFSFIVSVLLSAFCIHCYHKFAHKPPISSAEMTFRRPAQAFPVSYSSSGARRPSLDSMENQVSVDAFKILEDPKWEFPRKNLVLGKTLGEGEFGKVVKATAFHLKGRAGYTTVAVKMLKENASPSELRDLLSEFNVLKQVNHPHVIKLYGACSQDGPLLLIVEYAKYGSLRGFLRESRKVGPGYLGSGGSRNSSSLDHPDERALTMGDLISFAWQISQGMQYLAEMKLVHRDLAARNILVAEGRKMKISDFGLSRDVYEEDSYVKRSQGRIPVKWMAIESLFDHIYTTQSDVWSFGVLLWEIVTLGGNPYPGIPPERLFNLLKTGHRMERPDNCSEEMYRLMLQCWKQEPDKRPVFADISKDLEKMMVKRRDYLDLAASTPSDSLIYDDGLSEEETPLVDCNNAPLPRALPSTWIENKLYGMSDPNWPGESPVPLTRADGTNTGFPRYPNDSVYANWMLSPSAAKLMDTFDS
UniProt Q14012, sequence (whole entry, looked up): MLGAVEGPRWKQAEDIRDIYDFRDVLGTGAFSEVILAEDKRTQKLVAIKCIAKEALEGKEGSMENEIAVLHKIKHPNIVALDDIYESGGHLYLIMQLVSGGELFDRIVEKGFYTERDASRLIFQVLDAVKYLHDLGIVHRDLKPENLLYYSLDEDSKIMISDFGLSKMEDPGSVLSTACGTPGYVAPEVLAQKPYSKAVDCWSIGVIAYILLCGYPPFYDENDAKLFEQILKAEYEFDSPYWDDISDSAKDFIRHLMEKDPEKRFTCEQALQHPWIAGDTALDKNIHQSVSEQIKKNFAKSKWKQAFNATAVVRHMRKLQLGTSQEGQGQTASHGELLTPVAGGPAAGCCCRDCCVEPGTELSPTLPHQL
UniProt Q13555, sequence (whole entry, looked up): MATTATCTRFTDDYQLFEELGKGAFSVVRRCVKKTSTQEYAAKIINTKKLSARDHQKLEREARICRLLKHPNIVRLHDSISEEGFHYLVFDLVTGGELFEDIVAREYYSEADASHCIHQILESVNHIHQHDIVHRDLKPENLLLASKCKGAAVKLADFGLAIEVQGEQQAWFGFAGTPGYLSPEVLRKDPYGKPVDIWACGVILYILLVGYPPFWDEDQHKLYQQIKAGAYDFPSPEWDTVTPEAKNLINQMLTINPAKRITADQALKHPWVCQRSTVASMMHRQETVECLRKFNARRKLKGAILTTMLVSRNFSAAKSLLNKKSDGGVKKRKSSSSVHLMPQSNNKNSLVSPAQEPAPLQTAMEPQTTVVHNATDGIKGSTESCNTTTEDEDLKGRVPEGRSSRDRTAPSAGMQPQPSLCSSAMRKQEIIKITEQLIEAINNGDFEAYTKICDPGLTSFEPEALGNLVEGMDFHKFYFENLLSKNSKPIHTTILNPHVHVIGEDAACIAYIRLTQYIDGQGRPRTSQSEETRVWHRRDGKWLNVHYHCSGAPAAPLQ
UniProt Q15831, sequence (whole entry, looked up): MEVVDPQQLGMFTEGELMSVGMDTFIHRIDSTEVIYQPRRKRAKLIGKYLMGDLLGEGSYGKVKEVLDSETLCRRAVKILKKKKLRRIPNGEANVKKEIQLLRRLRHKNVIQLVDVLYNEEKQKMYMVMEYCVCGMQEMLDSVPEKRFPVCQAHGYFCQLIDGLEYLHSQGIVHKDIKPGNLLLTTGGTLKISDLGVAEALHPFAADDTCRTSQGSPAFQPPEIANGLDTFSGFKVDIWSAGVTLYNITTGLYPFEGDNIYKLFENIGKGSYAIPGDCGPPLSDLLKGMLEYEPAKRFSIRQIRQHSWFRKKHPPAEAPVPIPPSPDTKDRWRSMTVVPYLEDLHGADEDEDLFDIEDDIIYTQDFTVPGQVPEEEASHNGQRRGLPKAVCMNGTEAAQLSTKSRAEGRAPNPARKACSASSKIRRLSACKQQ

Set 1
Structure (SMILES): CCCCN(CCCC)C(=O)CN1C[C@H](c2cc(OC)c3c(c2)OCO3)[C@@H](C(=O)O)[C@@H]1CC(C)(C)CCC
Tested at: 1 µM
target | assay | remaining binding [%]
CDC42BPG (Homo sapiens, UniProt Q6DT37) | competition binding | 100
RIOK3 (Homo sapiens, UniProt O14730) | cell-free assay, competition with immobilised ligand | 74.9
Tyrosine-protein kinase ABL1, phosphorylated (ABL1, Homo sapiens, UniProt P00519, E255K) | binding, competition with immobilised ligand | 83.7
CAMK1D (Homo sapiens, UniProt Q8IU85) | cell-free assay, competition with immobilised ligand | 100
MAP3K11 (Homo sapiens, UniProt Q16584) | cell-free assay, competition with immobilised ligand | 100
MAP3K6 (Homo sapiens, UniProt O95382) | cell-free assay, competition with immobilised ligand | 81.7
MARK4 (Homo sapiens, UniProt Q96L34) | cell-free assay, competition with immobilised ligand | 98.3
STK11 (Homo sapiens, UniProt Q15831) | cell-free assay, competition with immobilised ligand | 100
LIM domain kinase 2 (LIMK2, Homo sapiens, UniProt P53671) | cell-free assay, competition with immobilised ligand | 100
CDK4 (Homo sapiens, UniProt P11802) | cell-free assay, competition with immobilised ligand | 42.7
KIT (Homo sapiens, UniProt P10721) | cell-free assay, competition with immobilised ligand | 100
CAMK2A (Homo sapiens, UniProt Q9UQM7) | cell-free assay, competition with immobilised ligand | 100
FLT3 (Homo sapiens, UniProt P36888, R834Q) | cell-free assay, competition with immobilised ligand | 64.2
LIM domain kinase 1 (LIMK1, Homo sapiens, UniProt P53667) | cell-free assay, competition with immobilised ligand | 100
FGFR3 (Homo sapiens, UniProt P22607, G697C) | cell-free assay, competition with immobilised ligand | 80.2
PIM3 (Homo sapiens, UniProt Q86V86) | cell-free assay, competition with immobilised ligand | 100
CDC42BPB (Homo sapiens, UniProt Q9Y5S2) | cell-free assay, competition with immobilised ligand | 100

Set 2
Compound: Cc1sc(C(=O)NC2COC2)cc1-n1cc(NC(=O)Nc2c(F)cccc2Cl)cn1
Tested at: 10 µM
target | assay | scale | remaining activity [%]
TTBK1 (Homo sapiens, UniProt Q5TCY1) | enzyme activity | baseline: untreated control | 102
PTK2B (Homo sapiens, UniProt Q14289) | enzyme activity | baseline: untreated control | 102
MKNK1 (Homo sapiens, UniProt Q9BUB5) | enzyme activity | baseline: untreated control | 93.2
CDC42BPG (Homo sapiens, UniProt Q6DT37) | kinase activity, kinase panel profiling |  | 118
CAMK1 (Homo sapiens, UniProt Q14012) | enzyme activity | baseline: untreated control | 113
STK38L (Homo sapiens, UniProt Q9Y2H1) | enzyme activity | baseline: untreated control | 93.8
SIK2 (Homo sapiens, UniProt Q9H0K1) | enzyme activity | baseline: untreated control | 88.7
Cyclin-dependent kinase 16, with cyclin Y (CDK16, Homo sapiens, UniProt Q00536) | enzyme activity | baseline: untreated control | 93.3
AXL (Homo sapiens, UniProt P30530) | enzyme activity | baseline: untreated control | 85.7

Set 3
Compound: COc1cc(C(=O)N2CCC(N3CCN(C)CC3)CC2)ccc1Nc1ncc2c(n1)N(C)c1ccccc1C(=O)N2C
Mode: inhibitor
Tested at: 5 µM
target | assay | system | conditions | scale | log2 fold change
CAMK2G (Homo sapiens, UniProt Q13555) | cell-based kinome profiling | human cells |  | baseline: vehicle control | -0.636
human SPTBN1-FLT3 fusion | kinase–CDC37 interaction |  |  | baseline: vehicle | 0.324
kinase–CDC37 interaction | kinase–CDC37 binding | human cells | oncogenic ETV6-FGFR3 fusion | baseline: vehicle | -0.219
RAF1 (Homo sapiens, UniProt P04049) | kinase activity |  | cell-based kinome screen | baseline: vehicle | -0.235
kinase–CDC37 interaction | kinase–CDC37 binding | human cells | oncogenic FCHSD1-BRAF fusion | baseline: vehicle | 0.02
NPR2 (Homo sapiens, UniProt P20594) | cell-based kinome screen | human cells |  | baseline: untreated control | 0.03 log2
FLT3 ITD human | kinase-CDC37 interaction | human cells |  | baseline: vehicle | -0.323
kinase–CDC37 interaction | kinase–CDC37 binding | human cells | oncogenic ETV6-PDGFRA fusion | baseline: vehicle | 0.224
TEK (Homo sapiens, UniProt Q02763, Y897S) | kinase–CDC37 interaction |  | TEK Y897S mutant | baseline: vehicle | -0.012
RET (Homo sapiens, UniProt P07949) |  | human cells | cell-based kinome screen | baseline: vehicle | -0.176 and -0.151

Set 4
SMILES: C=CCc1ccc(O)c(-c2ccc(O)c(CC=C)c2)c1
Observed: chloride current
ANO1 del476-501/F628A: Anoctamin-1 (ANO1, Homo sapiens, UniProt Q5XXA6, del476-501/F628A)
UniProt Q5XXA6, sequence (whole entry, unmodified, looked up): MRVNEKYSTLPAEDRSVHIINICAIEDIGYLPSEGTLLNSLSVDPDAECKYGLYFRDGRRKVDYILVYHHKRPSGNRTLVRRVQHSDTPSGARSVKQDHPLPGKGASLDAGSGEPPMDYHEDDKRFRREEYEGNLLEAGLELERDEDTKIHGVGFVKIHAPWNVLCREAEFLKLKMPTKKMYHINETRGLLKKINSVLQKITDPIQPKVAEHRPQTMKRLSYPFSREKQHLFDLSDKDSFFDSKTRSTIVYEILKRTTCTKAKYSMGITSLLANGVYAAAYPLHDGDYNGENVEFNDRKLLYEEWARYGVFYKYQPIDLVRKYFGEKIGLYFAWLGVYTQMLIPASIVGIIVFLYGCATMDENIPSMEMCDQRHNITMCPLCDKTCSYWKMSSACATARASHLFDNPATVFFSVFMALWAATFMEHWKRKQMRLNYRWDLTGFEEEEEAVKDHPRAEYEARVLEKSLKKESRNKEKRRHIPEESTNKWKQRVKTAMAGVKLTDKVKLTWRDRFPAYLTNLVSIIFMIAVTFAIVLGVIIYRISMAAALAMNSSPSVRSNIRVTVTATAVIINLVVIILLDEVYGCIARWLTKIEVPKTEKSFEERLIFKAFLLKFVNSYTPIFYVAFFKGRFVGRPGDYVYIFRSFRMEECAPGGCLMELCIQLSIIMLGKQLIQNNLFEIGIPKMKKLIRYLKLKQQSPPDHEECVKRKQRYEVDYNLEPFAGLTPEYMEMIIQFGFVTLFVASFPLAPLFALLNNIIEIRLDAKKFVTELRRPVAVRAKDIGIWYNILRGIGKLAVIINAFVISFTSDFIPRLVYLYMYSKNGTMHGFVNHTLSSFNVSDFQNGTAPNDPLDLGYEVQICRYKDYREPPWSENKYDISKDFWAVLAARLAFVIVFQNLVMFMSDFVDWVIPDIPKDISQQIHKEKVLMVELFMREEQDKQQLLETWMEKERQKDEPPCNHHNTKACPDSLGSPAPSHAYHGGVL
ANO1 del476-501: Anoctamin-1 (ANO1, Homo sapiens, UniProt Q5XXA6, del476-501)
ANO1 del476-501/E659A: Anoctamin-1 (ANO1, Homo sapiens, UniProt Q5XXA6, del476-501/E659A)
target | assay | conditions | normalized current
ANO1 del476-501/F628A | whole-cell voltage clamp | 1 µM, I-V at -40 mV, together with: 4 µM Ca2+ | -0.291
ANO1 del476-501 | whole-cell voltage clamp | 10 µM, wild type, concentration-response at 100 mV, together with: 4 µM Ca2+ | 0.299
ANO1 del476-501 | whole-cell voltage clamp | 10 µM, wild type, I-V at 20 mV, together with: 4 µM Ca2+ | 0.0533
ANO1 del476-501/E659A | inside-out patch clamp | 10 µM, membrane voltage 20 mV | 0.177
Anoctamin-1 (ANO1, Homo sapiens, UniProt Q5XXA6, del476-501/E649A/R541A) | inside-out patch clamp | 10 µM, membrane voltage 0 mV | -0.0024
ANO1 del476-501/F628A | whole-cell voltage clamp | 100 µM, concentration-response at 100 mV, together with: 4 µM Ca2+ | 0.145
ANO1 del476-501/F628A | whole-cell voltage clamp | 3 µM, I-V at 40 mV, together with: 4 µM Ca2+ | 0.297
ANO1 del476-501 | whole-cell voltage clamp | 10 µM, wild type, I-V at 100 mV, together with: 4 µM Ca2+ | 0.316
ANO1 del476-501/F628A | whole-cell voltage clamp | 10 µM, concentration-response at -40 mV, together with: 4 µM Ca2+ | -0.298
ANO1 del476-501/E659A | inside-out patch clamp | 10 µM, membrane voltage -20 mV | -0.192
TMEM16A (human) K603A/E623A | inside-out patch clamp | 10 µM, membrane voltage 20 mV | 0.0998

A few entries again (set 4):
target | assay | conditions | normalized current
ANO1 del476-501/F628A | whole-cell voltage clamp | 3 µM, I-V at 40 mV, together with: 4 µM Ca2+ | 0.297
ANO1 del476-501/F628A | whole-cell voltage clamp | 1 µM, I-V at -40 mV, together with: 4 µM Ca2+ | -0.291
TMEM16A (human) K603A/E623A | inside-out patch clamp | 10 µM, membrane voltage 20 mV | 0.0998
